Results of several laboratories.
Each line is one published result; not all experiments were run side by side.
Target: Myosin light chain kinase, smooth muscle (MYLK, Homo sapiens, UniProt Q15746)

| Compound | test | conditions | scale | quantity | value |
| --- | --- | --- | --- | --- | --- |
| Cc1cnc2nc1Nc1cccc(c1)COC/C=C/COCc1cc(ccc1OCCN1CCOCC1)N2 | binding | 0.1 µM | – | remaining binding | 75% |
| Nc1ncc2c(n1)-c1c([nH]c3ccc(C4=CCOCC4)cc13)CCC2 | binding, competition with immobilised ligand | 1 µM | – | remaining binding | 94% |
| O=C(Cc1ccc(OCc2ccccc2)cc1)NC1(C(=O)O)CCN(C(=O)c2ccc(-c3cccc(Cl)c3)cc2)CC1 | enzyme activity, inhibitor | 10 µM | – | activity vs control | 93% |
| COc1cc(Nc2nc(C)cc(-c3cnn4nc(OC)ccc34)n2)cc(C(F)(F)F)c1 | inhibitor | 1 µM | baseline: control | remaining activity | 58% |
| CNC1C[S+]2CC[S+]3CC[S+](C1)[Ru-4]321([N]=C=S)[n]2c3ccc(OC)cc3c3c4c(c5cc(F)c[n+]1c5c32)C(=O)NC4=O (stereo not drawn) | KinomeScan | 0.1 µM | baseline: untreated | remaining binding | 0.8% |
| Cc1cccc(-c2ccc3nc(NC(=O)C4CCCO4)nn3c2)c1 (stereo not drawn) | enzyme activity, Dundee kinase panel | 10 µM | – | remaining activity | 92% |
| CCN1CCN(Cc2ccc(C(=O)Nc3ccc(C)c(NCc4cnc5[nH]ccc5c4OC)c3)cc2C(F)(F)F)CC1 | binding, competition with immobilised ligand | 1 µM | – | remaining binding | 100% |
| COc1c(Cl)cccc1Nc1c(-c2ccncc2C#C[C@@]2(C)CCCN2C(=O)/C=C/CN(C)C)[nH]c2c1C(=O)NCC2 | binding, competition with immobilised ligand | 3 µM | – | remaining binding | 100% |
| CNC(=O)C[C@H](Cc1ccc(C#N)cc1)NC(=O)c1cc(-c2ccc(CN[C@H](C)c3ccc(C)cc3)o2)ccc1Cl | enzyme activity, inhibitor | 1 µM | – | activity vs control | 98% |
| CNC(=O)C1CCN(c2cc(C)c(F)cc2NC(=O)c2ccc(-c3cc(O)ccc3C)c(C)c2)CC1 | binding, competition with immobilised ligand | 1 µM | – | remaining binding | 93% |
| Cc1ccc(-c2c(/C=C(\C#N)C(=O)NC(C)C)n(CCCO)c3ncnc(N)c23)cc1 | cell-free assay, competition with immobilised ligand | 1 µM | – | remaining binding | 100% |
| NC(=O)[C@@H](O)C[C@H]1CCc2sc3ncnc(O[C@H]4CC[C@H](N5CCOCC5)CC4)c3c21 | enzyme activity, inhibitor | 10 µM | – | inhibition | 4% |
| C=CC(=O)N1Cc2nc(-c3cc(-c4cc(Cl)cnc4Cl)c(F)cc3F)n(-c3ccncn3)c2C1 | cell-free assay, inhibitor | 1 µM | – | inhibition | -1.8% |
| CN1CCN(Cc2ccc(-c3ccc(CO[C@H]4CCC[C@@H]4NC(=O)c4cc(-c5cnn(C)c5)cnc4N)cc3)cc2)CC1 | enzyme activity, inhibitor | 0.1 µM | – | inhibition | 1% |
| Cc1cccc(-c2ccc3nc(NC(=O)C4CCCCC4)nn3c2)c1 | enzyme activity, Dundee kinase panel | 10 µM | – | remaining activity | 83% |
